{"data": "Results of several laboratories", "note": "Numbers after ± are the reported error."}
{"Structure (SMILES)": "O=C(Nc1cnc2ccccc2c1)c1cc2[nH]ccc2cc1Cl", "target or system": "COS-7", "test": "WST-8", "conditions": "10 µM, 24 h, 0.1% DMSO, unit not given", "scale": "baseline: vehicle control", "endpoint": "metabolic activity", "value": "0.99 ± 0.04"}
{"Structure (SMILES)": "COc1c(O)cc2c(c1O)C(=O)c1c(cc(C)c(O)c1OC)C2=O", "target or system": "HepaRG co-cultured with HK-2", "test": "MTT", "conditions": "66.67 µM, 48 h", "scale": "baseline: untreated control", "endpoint": "cell viability", "value": "67.3 ± 4.37%"}
{"Structure (SMILES)": "CCNC(=O)[C@@H]1CCCN1C(=O)[C@H](CCCNC(=N)N)NC(=O)[C@H](CC(C)C)NC(=O)[C@@H](CC(C)C)NC(=O)[C@H](Cc1ccc(O)cc1)NC(=O)[C@H](CO)NC(=O)[C@H](Cc1c[nH]c2ccccc12)NC(=O)[C@H](Cc1c[nH]cn1)NC(=O)[C@@H]1CCC(=O)N1", "system": "healthy female volunteers", "conditions": "dose not given, all treatment groups", "endpoint": "tolerability", "value": "not toxic"}
{"Structure (SMILES)": "CCO[C@H]1CCN(Cc2c(OC)cc(C)c3[nH]ccc23)[C@H](c2ccc(C(=O)O)cc2)C1", "system": "PNH patients, active haemolysis", "conditions": "oral, 100 mg, 8 weeks, treatment", "endpoint": "incidence musculoskeletal chest pain", "value": "14.3%"}
{"Structure (SMILES)": "Cc1cc(Nc2cc3ncccc3c(N[C@@H]3C[C@H]4CC[C@@H](C3)N4CCC#N)n2)n[nH]1", "system": "human, plasma", "conditions": "30 mg single dose, mean", "endpoint": "AUC(0-24)", "value": "4.28 ng·h/mL"}
{"Structure (SMILES)": "CC(C)(C)c1ccc(O)c(CN(Cc2cc(C(C)(C)C)ccc2O)C2CCC(NC(N)=O)CC2)c1 (centres unmarked)", "system": "mouse plasma", "conditions": "5 ng/mL, 3 months, 4 °C, refrigerator storage", "endpoint": "recovery", "value": "99.88 ± 0.86%"}
{"Structure (SMILES)": "CCc1nc(C(N)=O)c(Nc2ccc(N3CCC(N4CCN(C)CC4)CC3)c(OC)c2)nc1NC1CCOCC1", "system": "Japanese patients, plasma", "conditions": "oral, 200 mg, cycle 1 day 28, multiple doses, mean", "scale": "baseline: single dose", "endpoint": "accumulation ratio (AUC)", "value": 8.1}
{"Structure (SMILES)": "NC1(C(=O)N[C@@H](CCO)c2ccc(Cl)cc2)CCN(c2nc[nH]c3nccc2-3)CC1", "system": "metastatic CRPC patients", "conditions": "dose not given, any grade, treatment-related, all doses, added: enzalutamide 160 mg daily", "endpoint": "incidence of Somnolence", "value": "6.7%"}
{"Structure (SMILES)": "Cc1ccc(O)c(O)c1", "system": "human plasma", "conditions": "mean", "endpoint": "plasma concentration", "value": "5.05 µM"}
{"Structure (SMILES)": "[H]/N=C(/N)N[C@H]1[C@H](O)[C@@H](O)[C@H](O[C@@H]2O[C@@H](C)[C@](O)(C=O)[C@H]2O[C@@H]2O[C@@H](CO)[C@H](O)[C@@H](O)[C@@H]2NC)[C@@H](N/C(N)=N\\[H])[C@@H]1O", "test": "starch gel membrane permeability", "system": "Gram-negative envelope surrogate", "conditions": "200 µM, 90 min, pH 7.4", "endpoint": "amount permeated", "value": "3.06 nmol"}
{"Structure (SMILES)": "CN(C(=O)C(C)(C)c1cc(C(F)(F)F)cc(C(F)(F)F)c1)c1cnc(N2C[C@H]3COCCN3C[C@H]2CO)cc1-c1ccc(F)cc1[14CH3]", "system": "healthy men", "conditions": "oral, 120 mg single dose", "endpoint": "tolerability", "value": "not toxic"}
{"Structure (SMILES)": "CN(C)C(=O)CCc1nc(-c2ccccc2)c(-c2ccccc2)o1", "target or system": "COS-7", "test": "WST-8", "conditions": "100 µM, 24 h, 0.1% DMSO, unit not given", "scale": "baseline: control", "endpoint": "metabolic activity", "value": "0.51 ± 0.45"}
{"Structure (SMILES)": "Cc1ccc([C@@H]2O[C@H](CO)[C@@H](O)[C@H](O)[C@H]2O)cc1Cc1ccc(-c2ccc(F)cc2)s1", "system": "Japanese type 2 diabetes patients", "conditions": "100 mg, day 15, 24 h urine collection", "scale": "baseline: baseline", "endpoint": "urinary calcium excretion change", "value": "-0.456 mg"}
{"Structure (SMILES)": "O=C1CC[C@H](Cc2ccc(OS(=O)(=O)O)c(O)c2)O1", "system": "human plasma", "conditions": "mean", "endpoint": "plasma concentration", "value": "1.4 µM"}
{"Structure (SMILES)": "CC(C)(C(=O)N1CCOc2c(C#N)cncc2C1)C(F)F", "test": "refers to: abnormal urine odour", "system": "human, both sexes", "conditions": "oral, 20 mg once daily, 14 days, multiple ascending dose", "endpoint": "subjects with TEAE", "value": "0%"}
{"Structure (SMILES)": "Cn1nc2c(=O)n(C3CC3)ncc2c1[C@](N)(c1ccc(C(F)(F)F)c(Cl)c1)C1CC1", "system": "rat Sprague-Dawley male, plasma", "conditions": "intravenous, 1 mg/kg", "endpoint": "CL", "value": "1.54 ± 0.288 mL/min/kg"}
{"Structure (SMILES)": "O=C(O)CNC(=O)c1ccc(O)cc1", "system": "human plasma", "conditions": "mean", "endpoint": "plasma concentration", "value": "6.74 µM"}
{"Structure (SMILES)": "CCn1cc(C(=O)O)c(=O)c2ccc(C)nc21", "test": "starch gel membrane permeability", "system": "Gram-negative envelope surrogate", "conditions": "200 µM, 90 min, pH 7.4", "endpoint": "amount permeated", "value": "5.71 nmol"}
{"Structure (SMILES)": "Cc1nc(-c2ccc(OCC(C)C)c(C#N)c2)sc1C(=O)O", "system": "healthy Chinese subjects, fasted", "conditions": "oral, 40 mg single dose", "endpoint": "subjects discontinued due to AEs", "value": "0%"}
{"Structure (SMILES)": "Cn1cc(Nc2nc(N)nc(-c3cccc(-n4ccc5cc(C6CC6)cc(F)c5c4=O)c3CO)n2)cn1", "system": "healthy humans, fed", "conditions": "oral tablet, 300 mg twice daily (multiple dose), 14 (unit not given)", "scale": "baseline: subjects", "endpoint": "drug-related nausea incidence", "value": "0%"}
{"Structure (SMILES)": "CCN1/C(=C/C(C)=O)Sc2ccc(F)cc21", "system": "cynomolgus monkey", "conditions": "oral, 10 mg/kg, 2 h post-dose", "endpoint": "systolic blood pressure", "value": "112 ± 7 mmHg"}
{"Structure (SMILES)": "Cn1cc([C@H]2C[C@H]3CSC(N)=N[C@@]3(c3ccc(F)cc3F)CO2)cn1", "system": "mouse", "conditions": "subcutaneous, 10 mg/kg, 18 h", "endpoint": "CSF concentration", "value": "not detected"}
{"Structure (SMILES)": "COc1cc2c(c(O)c1OC)C(=O)c1c(cc(C)c(O[C@@H]3O[C@H](CO)[C@@H](O)[C@H](O)[C@H]3O)c1OC)C2=O", "target or system": "HepaRG co-cultured with HK-2", "test": "MTT", "conditions": "33.33 µM, 48 h", "scale": "baseline: untreated control", "endpoint": "cell viability", "value": "73.4 ± 15.4%"}
{"note": "For quick reference, copied from above:"}
{"Structure (SMILES)": "Cc1ccc(O)c(O)c1", "system": "human plasma", "conditions": "mean", "endpoint": "plasma concentration", "value": "5.05 µM"}
{"Structure (SMILES)": "[H]/N=C(/N)N[C@H]1[C@H](O)[C@@H](O)[C@H](O[C@@H]2O[C@@H](C)[C@](O)(C=O)[C@H]2O[C@@H]2O[C@@H](CO)[C@H](O)[C@@H](O)[C@@H]2NC)[C@@H](N/C(N)=N\\[H])[C@@H]1O", "test": "starch gel membrane permeability", "system": "Gram-negative envelope surrogate", "conditions": "200 µM, 90 min, pH 7.4", "endpoint": "amount permeated", "value": "3.06 nmol"}
